Published values pooled from the literature.
Parts stem from different laboratories: compare values within a part only.
UniProt P50750, sequence (whole entry, looked up): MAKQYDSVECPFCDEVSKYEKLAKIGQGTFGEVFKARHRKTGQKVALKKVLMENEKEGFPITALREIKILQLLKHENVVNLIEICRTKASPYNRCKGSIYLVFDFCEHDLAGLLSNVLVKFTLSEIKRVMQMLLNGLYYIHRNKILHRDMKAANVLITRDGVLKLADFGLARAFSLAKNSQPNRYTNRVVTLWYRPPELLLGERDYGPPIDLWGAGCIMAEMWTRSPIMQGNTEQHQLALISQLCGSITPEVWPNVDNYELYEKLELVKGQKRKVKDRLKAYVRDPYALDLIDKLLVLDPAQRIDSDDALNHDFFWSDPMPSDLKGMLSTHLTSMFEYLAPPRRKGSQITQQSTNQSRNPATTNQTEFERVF
UniProt P35968, sequence (whole entry, looked up): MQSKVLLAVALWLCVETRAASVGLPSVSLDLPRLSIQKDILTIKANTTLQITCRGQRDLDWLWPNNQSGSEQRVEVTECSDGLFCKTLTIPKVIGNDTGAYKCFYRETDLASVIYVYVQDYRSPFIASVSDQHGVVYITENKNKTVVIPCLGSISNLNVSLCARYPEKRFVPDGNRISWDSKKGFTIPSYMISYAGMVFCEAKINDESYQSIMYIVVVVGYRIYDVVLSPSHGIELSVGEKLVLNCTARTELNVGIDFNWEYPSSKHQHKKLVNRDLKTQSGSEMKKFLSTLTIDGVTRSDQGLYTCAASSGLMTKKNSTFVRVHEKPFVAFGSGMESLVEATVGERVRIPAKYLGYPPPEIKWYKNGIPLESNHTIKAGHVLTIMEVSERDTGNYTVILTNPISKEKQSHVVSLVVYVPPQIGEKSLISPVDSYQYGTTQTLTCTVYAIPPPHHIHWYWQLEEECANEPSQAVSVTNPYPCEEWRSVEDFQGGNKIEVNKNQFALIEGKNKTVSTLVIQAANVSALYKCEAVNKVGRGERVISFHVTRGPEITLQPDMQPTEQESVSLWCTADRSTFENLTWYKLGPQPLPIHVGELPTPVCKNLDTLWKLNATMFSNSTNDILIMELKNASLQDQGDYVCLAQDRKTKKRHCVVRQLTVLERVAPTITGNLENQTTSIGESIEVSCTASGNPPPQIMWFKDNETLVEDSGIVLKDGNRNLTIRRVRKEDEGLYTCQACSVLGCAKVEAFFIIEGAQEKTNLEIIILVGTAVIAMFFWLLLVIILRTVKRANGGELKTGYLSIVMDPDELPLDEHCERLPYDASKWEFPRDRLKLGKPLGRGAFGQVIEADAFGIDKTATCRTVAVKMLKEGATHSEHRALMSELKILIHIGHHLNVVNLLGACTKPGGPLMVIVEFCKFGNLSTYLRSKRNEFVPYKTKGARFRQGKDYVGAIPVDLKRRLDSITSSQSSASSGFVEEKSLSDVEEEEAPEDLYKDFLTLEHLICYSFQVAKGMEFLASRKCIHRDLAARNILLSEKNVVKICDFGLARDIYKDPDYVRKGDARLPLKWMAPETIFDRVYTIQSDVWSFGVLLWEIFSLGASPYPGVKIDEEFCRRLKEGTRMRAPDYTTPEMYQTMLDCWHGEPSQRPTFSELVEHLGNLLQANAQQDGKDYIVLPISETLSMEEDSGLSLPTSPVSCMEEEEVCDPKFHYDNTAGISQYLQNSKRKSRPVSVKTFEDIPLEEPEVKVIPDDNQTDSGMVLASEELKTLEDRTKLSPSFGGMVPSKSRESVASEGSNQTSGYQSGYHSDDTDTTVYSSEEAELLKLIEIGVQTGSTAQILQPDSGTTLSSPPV
UniProt Q96L34, sequence (whole entry, looked up): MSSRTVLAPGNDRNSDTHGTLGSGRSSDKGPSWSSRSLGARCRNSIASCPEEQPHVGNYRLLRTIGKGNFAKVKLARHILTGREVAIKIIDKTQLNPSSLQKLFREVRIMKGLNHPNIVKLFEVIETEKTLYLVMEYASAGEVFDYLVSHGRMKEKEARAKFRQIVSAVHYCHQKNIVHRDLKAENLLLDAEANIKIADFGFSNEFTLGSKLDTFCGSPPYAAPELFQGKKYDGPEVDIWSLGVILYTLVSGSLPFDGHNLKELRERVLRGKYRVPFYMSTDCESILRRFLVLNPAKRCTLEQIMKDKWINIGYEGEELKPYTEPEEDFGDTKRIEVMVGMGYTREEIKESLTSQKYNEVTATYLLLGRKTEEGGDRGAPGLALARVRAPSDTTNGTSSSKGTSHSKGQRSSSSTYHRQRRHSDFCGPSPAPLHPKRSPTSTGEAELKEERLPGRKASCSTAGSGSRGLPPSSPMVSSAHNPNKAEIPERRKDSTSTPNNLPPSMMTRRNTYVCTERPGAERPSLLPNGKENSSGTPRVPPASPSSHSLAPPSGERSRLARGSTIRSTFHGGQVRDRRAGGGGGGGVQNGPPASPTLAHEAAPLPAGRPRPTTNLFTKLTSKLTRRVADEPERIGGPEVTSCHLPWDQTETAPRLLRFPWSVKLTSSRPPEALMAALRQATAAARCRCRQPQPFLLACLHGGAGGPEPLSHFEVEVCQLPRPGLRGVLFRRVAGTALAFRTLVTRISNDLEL
UniProt Q9H4B4, sequence (whole entry, looked up): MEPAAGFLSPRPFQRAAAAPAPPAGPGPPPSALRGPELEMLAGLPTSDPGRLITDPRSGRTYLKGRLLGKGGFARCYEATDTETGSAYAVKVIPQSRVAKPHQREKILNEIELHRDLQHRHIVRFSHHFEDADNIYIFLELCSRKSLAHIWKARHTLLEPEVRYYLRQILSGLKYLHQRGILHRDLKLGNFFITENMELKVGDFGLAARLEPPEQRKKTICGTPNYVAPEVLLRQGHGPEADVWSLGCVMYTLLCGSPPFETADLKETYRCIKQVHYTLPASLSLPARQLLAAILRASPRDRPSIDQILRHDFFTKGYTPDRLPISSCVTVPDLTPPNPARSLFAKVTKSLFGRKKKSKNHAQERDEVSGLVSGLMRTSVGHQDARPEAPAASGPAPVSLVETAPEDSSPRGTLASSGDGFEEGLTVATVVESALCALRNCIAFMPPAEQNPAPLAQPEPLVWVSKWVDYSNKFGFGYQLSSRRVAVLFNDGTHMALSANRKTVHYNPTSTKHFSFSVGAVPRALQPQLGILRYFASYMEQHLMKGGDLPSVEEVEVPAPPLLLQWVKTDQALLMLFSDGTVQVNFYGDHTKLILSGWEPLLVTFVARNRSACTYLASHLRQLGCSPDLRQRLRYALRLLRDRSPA
UniProt P06493, sequence (whole entry, looked up): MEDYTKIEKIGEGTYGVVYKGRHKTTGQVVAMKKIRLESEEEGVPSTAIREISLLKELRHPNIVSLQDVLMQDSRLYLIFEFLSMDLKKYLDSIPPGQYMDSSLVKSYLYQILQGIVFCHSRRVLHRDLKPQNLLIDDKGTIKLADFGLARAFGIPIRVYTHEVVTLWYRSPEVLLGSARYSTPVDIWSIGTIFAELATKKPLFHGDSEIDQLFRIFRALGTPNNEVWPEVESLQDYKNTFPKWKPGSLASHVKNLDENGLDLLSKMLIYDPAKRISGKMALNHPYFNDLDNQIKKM
UniProt Q16539, sequence (whole entry, looked up): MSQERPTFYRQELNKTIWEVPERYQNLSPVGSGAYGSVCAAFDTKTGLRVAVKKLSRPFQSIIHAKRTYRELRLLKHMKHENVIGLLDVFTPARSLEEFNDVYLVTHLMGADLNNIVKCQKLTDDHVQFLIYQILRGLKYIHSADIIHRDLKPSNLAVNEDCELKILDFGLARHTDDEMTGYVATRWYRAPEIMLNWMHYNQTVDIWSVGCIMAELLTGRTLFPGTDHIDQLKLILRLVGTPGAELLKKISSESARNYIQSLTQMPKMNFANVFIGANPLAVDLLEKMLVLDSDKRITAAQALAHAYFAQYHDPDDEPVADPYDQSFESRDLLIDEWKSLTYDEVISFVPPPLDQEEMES

Study 1
SMILES: COc1cccc(-c2cc(=O)c3ccccc3o2)c1N
Effect on: enzyme activity
Action: inhibitor
Tested at: 0.5 µM
Relative to: control
For Vascular endothelial growth factor receptor 2 (KDR, Homo sapiens, UniProt P35968): remaining activity read 81.3%.
The remaining activity was 83.8% (Cyclin-dependent kinase 1, with cyclin A (CDK1, Homo sapiens, UniProt P06493)).
The remaining activity was 98.3% (Cyclin-dependent kinase 9, with cyclin K (CDK9, Homo sapiens, UniProt P50750)).
The remaining activity was 104% (G protein-coupled receptor kinase 4 (GRK4, Homo sapiens, UniProt P32298)).
Serine/threonine-protein kinase MRCK beta (CDC42BPB, Homo sapiens, UniProt Q9Y5S2) — remaining activity: 94.8%.
Serine/threonine-protein kinase MARK2 (MARK2, Homo sapiens, UniProt Q7KZI7) — remaining activity: 84.9%.
For Ribosomal protein S6 kinase alpha-4 (RPS6KA4, Homo sapiens, UniProt O75676): remaining activity read 103%.
For Mitogen-activated protein kinase 14 (MAPK14, Homo sapiens, UniProt Q16539): remaining activity read 76.2%.
For Serine/threonine-protein kinase PLK3 (PLK3, Homo sapiens, UniProt Q9H4B4): remaining activity read 98%.
The remaining activity was 95.4% (Dual specificity protein kinase CLK3 (CLK3, Homo sapiens, UniProt P49761)).
It gave 108% for remaining activity (Mitogen-activated protein kinase 11 (MAPK11, Homo sapiens, UniProt Q15759)).
The remaining activity was 102% (Serine/threonine-protein kinase Nek3 (NEK3, Homo sapiens, UniProt P51956)).
For MAP/microtubule affinity-regulating kinase 4 (MARK4, Homo sapiens, UniProt Q96L34): remaining activity read 77.8%.

Study 2
Organism: Sarcocystis neurona
Effect on: parasite activity
Tested at: 10 µM
Time: 96 h
CN1CCC(=C2c3ccccc3C=Cc3ccccc32)CC1: activity class “inactive”.
CN(C)CCc1c[nH]c2ccc(Cn3cncn3)cc12 — result for activity class: “inactive”.
OC(c1cc(C(F)(F)F)nc2c(C(F)(F)F)cccc12)C1CCCCN1 (stereo not shown): activity class “inactive”.
For CO/N=C(\C(=O)N[C@@H]1C(=O)N2C(C(=O)O)=C(COC(N)=O)CS[C@H]12)c1ccco1, activity class read “inactive”.
For CN(C)CCCSc1ccccc1NC(=O)/C=C/c1ccccc1, activity class read “inactive”.
Under activity class, Clc1ccccc1C(c1ccccc1)(c1ccccc1)n1ccnc1 is recorded as “inactive”.
Under activity class, CC(C)(C)C(O)/C=C/c1ccc2c(c1)OCO2 (stereo not shown) is recorded as “inactive”.
CCc1nc(N)nc(N)c1-c1ccc(Cl)cc1: activity class “active”.
Under activity class, CO[C@H]1/C=C/O[C@@]2(C)Oc3c(C)c(O)c4c(O)c(c(/C=N/N5CCN(C6CCCC6)CC5)c(O)c4c3C2=O)NC(=O)/C(C)=C\C=C\[C@H](C)[C@H](O)[C@@H](C)[C@@H](O)[C@@H](C)[C@H](OC(C)=O)[C@@H]1C is recorded as “inactive”.
For CC1(C)O[C@@H]2[C@@H](CO[C@@]3(COS(N)(=O)=O)OC(C)(C)O[C@@H]23)O1, activity class read “inactive”.

Study 3
Target: Beta-1 adrenergic receptor (ADRB1, Homo sapiens, UniProt P08588)
UniProt P08588, sequence (whole entry, looked up): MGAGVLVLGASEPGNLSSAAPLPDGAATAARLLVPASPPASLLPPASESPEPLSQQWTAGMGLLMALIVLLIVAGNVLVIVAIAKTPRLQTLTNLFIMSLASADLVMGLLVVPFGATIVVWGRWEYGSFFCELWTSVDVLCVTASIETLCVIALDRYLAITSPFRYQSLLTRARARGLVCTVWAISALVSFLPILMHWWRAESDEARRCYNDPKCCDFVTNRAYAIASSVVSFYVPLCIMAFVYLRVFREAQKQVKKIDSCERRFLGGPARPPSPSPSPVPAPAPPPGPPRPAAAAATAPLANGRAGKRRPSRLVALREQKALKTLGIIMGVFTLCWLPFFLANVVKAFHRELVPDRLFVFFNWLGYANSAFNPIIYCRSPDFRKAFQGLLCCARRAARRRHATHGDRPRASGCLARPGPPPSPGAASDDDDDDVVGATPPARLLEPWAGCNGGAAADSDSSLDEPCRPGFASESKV
Action: antagonist
With Cc1oc(C(O)c2cccc(O)c2)nc1C(=O)Nc1ccc(N2CCOCC2)cc1 (stereo not shown) the IC50 was at least 100 µM.
Cc1cc(N(C)C)ccc1NC(=O)c1ccc2noc(-c3ccccc3)c2c1 has an IC50 of at least 100 µM.
The IC50 of O=C(COc1ccccc1)Nc1ccc([C@@H](O)[C@H]2COCC(=O)N2Cc2ccc(C(F)(F)F)cc2)cc1 is reported as at least 100 µM.
Cc1ncc(-c2ccc(F)c3cccnc23)nc1C gave an IC50 of at least 100 µM.
CN(C)CC(O)c1cc2n(n1)CCN(C(=O)CCc1ccc(=O)[nH]n1)C2 (stereo not shown) has an IC50 of at least 100 µM.
For c1ccc(-c2n[nH]cc2-c2ccnc3ccccc23)nc1, the IC50 was at least 100 µM.
COc1ccccc1CN[C@H]1[C@H](O)[C@@H](N2CCN(c3ccccc3OC)CC2)[C@@H]2OC[C@H]1O2 has an IC50 of at least 100 µM.

Study 4
Target: D(2) dopamine receptor (DRD2, Homo sapiens, UniProt P14416)
UniProt P14416, sequence (whole entry, looked up): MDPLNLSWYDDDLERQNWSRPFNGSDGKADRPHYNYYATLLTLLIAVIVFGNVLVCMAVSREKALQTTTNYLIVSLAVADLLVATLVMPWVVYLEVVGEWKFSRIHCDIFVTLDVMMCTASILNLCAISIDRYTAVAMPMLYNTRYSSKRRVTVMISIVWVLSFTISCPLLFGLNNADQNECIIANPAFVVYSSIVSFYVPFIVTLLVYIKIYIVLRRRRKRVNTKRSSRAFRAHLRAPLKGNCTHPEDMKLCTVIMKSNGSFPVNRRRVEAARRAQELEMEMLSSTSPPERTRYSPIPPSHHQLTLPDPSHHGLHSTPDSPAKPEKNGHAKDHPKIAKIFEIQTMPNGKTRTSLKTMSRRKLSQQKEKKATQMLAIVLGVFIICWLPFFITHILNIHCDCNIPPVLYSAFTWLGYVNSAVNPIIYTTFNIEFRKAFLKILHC
Effect on: ligand displacement
Tested at: 10 µM
CC(=O)Nc1ncc(CN2CCC[C@H](Cc3cc(C)nc(C)c3)C2)s1 has an inhibition of 0.63%.
The inhibition of CCc1ccccc1C(=O)Nc1n[nH]c2c(C)c(F)c(C3C(C#N)=C(C)N(C)C(C)=C3C#N)cc12 is reported as -10.4%.
With NC(=O)c1ccc2nc(-c3ccc(C4(N)CCC4)cc3)c(-c3ccccc3)n2n1 the inhibition was -1.55%.
Cn1cc(Cl)c2c(Oc3c(F)cc(Nc4cc(Cl)nc(N)n4)cc3F)ccnc21 has an inhibition of 1.05%.
With Nc1nc(NCc2ccccc2)nc(-c2ccccc2CO)n1 the inhibition was 10%.
The inhibition of c1ccc(C2CCN(c3cnc4c(N5CCOCC5)nccn34)CC2)cc1 is reported as 1.22%.
For O=C(NS(=O)(=O)c1ccc(NCC2CCOCC2)c([N+](=O)[O-])c1)c1ccc(N2CCN(Cc3ccc(C(F)(F)F)cc3-c3ccc(Cl)cc3)CC2)cc1Oc1cnc2[nH]ccc2c1, the inhibition was -22.4%.
With CN(C)C(=O)c1sc2nc(N3CCC(S(C)(=O)=O)CC3)cc(C(F)(F)F)c2c1N the inhibition was 1.12%.
For CS(=O)(=O)N1CCCC(NC(=O)[C@H](CCC2CCCCC2)NC(=O)c2ccc(CNC(=O)c3cnc4ccccn34)cc2)C1 (stereo partly shown), the inhibition was 7.14%.
The inhibition of Cc1c(NC(=O)c2cc(C(N)=O)nc3cc(F)ccc23)c(C(F)(F)F)nn1Cc1ccc(C#N)cc1 is reported as 8.73%.
